# Published values collected from several papers.
# Each numbered part is a random draw from the data of one study; scales do not carry over between parts. Positions count from the first letter of the parent shown.

# Sample 1 — technique: RNA Bind-n-Seq; form: RNA; matrix: in vitro; concentration: 365 nM; relative to: no-protein control; direction: higher = stronger binding
# Target: RNA binding protein fox-1 homolog 2, RRM domain, GST-SBP tag (RBFOX2, Homo sapiens, UniProt O43251-10, residues 100-194)
# Notes: natural RNA segment, single round, ends assumed
# Shared flanks, not repeated: GGGAGUUCUACAGUCCGACGAUC … UGGAAUUCUCGGGUGCCAA
# Residues (chain): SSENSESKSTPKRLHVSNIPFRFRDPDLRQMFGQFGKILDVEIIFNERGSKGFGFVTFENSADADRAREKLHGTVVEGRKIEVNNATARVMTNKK
Sequence,RBNS enrichment (R)
AUUGCUUUGACUAAAUCUGCUCAGGGGGAAUGUAAAACAGAUUAUAUUUUAUAAACCACUAGUGCCUUUGGGUUUCUUUGCCAAAAACUUAAGCCAGCCUCUAUCACCAA,0.516
UGGCCCCUGAGAAUGCCUGUGUUAGUUAAAGACAGAUGGGAUCAAGGCGAGGGCUACAGGCUGAGAGAGCUUGAGCUCAGAGGCUUUUAUGAACCGUUUCCUCUGAGGGC,2.01
CCUGCCCGUGGUGAGCUCAGCCAAGACUUGGCUCUCCAUGUUCCAGCCUCCGUCUGUGACUGGGUGGGUAAGUUCGGUGGGCCCCACCCAGUGGGCUCGGCAGCCGUCAC,0.534
CACAGGUGUGUGCAGUUGUGAAGAUCUCCAGGGAGACUCCAUCUUACCCUCCCCUUGUACUAAGAGCACAAGACACAGGACUCACAGAUUGCUUGUUCUCCCCUAUAAAG,0.414
GUGUGAUAAACCAUAUGUAGUUUAGUCUUUCUGUGGAGAGGCAGUGGUUGGGGCAUUUUUAAAUGGCUGGCUACACUUGUUUUCCCUCAUGAUAAUUUGUCAUAACUCAG,0.743
GACAUCAGAAAUCACCAGAACCUUCAGGAUCGCCUGCAGGCAGCCCAUCUACUGCUGGCCAGGAGCCCCCAGUGCCCUGUGGUGGUGGACACCAUGCAGAACCAGAGCAG,0.274
GGGGCCCCUCGGGCCUCACUUGCCCUGAGCCCAGGAGUCCAAGGGCAGGGUGGGUCCAGCCUUGAGCCCCUCCACCCCCAAAUCCUUCCUCUCCUCCCAGUCCCACCCCU,0.459
AGCAUUCUUGAUUCUUAGCGCUUUCGUGGUGCGUGUUUAUGAGAUAUUAGAACAGCGGAGGCUCUAAAAGCCCAGGAUUCUACUCAGUUAUGAAUGAAAAUCAAACGAAG,0.313

# Sample 2 — target: CCNE2, cyclin fold, Cln2 fusion (human); technique: yeast growth competition, sequencing; matrix: yeast; notes: weak parent motif; relative to: not given; direction: higher = stronger binding
# Starting sequence: CDC6 docking peptide (human); TLKGRRLVFDNQL; partner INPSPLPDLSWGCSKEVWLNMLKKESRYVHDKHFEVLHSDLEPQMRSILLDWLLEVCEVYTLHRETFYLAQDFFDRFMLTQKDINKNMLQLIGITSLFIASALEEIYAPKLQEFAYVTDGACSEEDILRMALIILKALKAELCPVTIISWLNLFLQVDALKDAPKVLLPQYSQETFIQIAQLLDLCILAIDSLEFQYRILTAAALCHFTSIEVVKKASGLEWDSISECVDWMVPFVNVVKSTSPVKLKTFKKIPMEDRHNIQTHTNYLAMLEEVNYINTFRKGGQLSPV
Substitution,normalised enrichment score
TLKGRRLVTDNQL [F9T],0.126
TLKWRRLVFDNQL [G4W],0.477
TLWGRRLVFDNQL [K3W],-1.63
TLKGRRLVNDNQL [F9N],-0.0971
TLKGRALVFDNQL [R6A],-0.0177
TLKGRRLLFDNQL [V8L],0.847
TLKGRRLVADNQL [F9A],-0.254
TLKGRRLVFWNQL [D10W],0.462
TLKGRRLVVDNQL [F9V],-0.016
TLKGRRMVFDNQL [L7M],0.473
TFKGRRLVFDNQL [L2F],-0.105
TLKGRRLVFKNQL [D10K],0.24
TLHGRRLVFDNQL [K3H],0.294
TLKGRRLPFDNQL [V8P],0.496
TLKGRRLVFDNCL [Q12C],0.548

# Sample 3 — technique: protein-binding microarray; form: double-stranded DNA, one strand shown; matrix: in vitro; concentration: 0.8 µM; notes: whole 60-bp probe, no competitor; direction: higher = stronger binding; shared flanks, not repeated: … GTCTTGATTCGCTTGACGCTGCTG
# Target: Centromere-binding protein 1, full length, N-terminal tag (CBF1, Saccharomyces cerevisiae, UniProt P17106, residues 1-351)
# Sequence of UniProt P17106 (whole entry, looked up): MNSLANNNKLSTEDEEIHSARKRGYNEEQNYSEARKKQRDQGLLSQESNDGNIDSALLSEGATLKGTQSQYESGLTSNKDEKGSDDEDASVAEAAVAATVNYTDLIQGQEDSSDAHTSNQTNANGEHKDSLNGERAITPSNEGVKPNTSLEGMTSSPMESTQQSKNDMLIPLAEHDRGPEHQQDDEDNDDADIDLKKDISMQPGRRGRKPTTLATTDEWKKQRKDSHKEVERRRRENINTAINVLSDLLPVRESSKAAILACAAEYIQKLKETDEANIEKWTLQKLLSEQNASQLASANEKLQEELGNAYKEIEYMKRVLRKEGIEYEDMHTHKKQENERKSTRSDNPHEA
Sequence,fluorescence intensity [a.u.]
GAATGTGGACCCCCTCACCTTATACCACTACGTTAG,498
CTAGGACATTCATGCAACGTGGTAAATATGTGTTTC,583
GAACGGAAAAGCTCACGTGTGAAGAAGAAAACATAG,3620
CTACACTAATAACACCACACCATTAATTTTAATTTC,530
CTAAATTCTACTTATCACGTCCCATTGTTGCTATTC,573
GAACCACTAGAATGTCATCAGATGAAAAAGACGTAG,567
GAATTCGCTCTTTATCACCACGCTTTTCCTCTCTAG,535
CTATTGAACAATAAGCACGACCTTCACCTTAGGTTC,521
CTATCGCACTCTAACCACCTGAAAGGTACTATCTTC,505
GAACGTCTGTGCATCTACGTGAACACACCAGGGTAG,543
CTACTGTGGCCCCCTCACGCTGTTTAATGACGATTC,548
GAATGCATACCCGCACTCGTGCTTACATGCTAATAG,581
CTAACGGTGTTAAATGGTGACGCAAGTTATGAGTTC,517
GAAAGCCATCAATGTCACCCATCTTTTGTGGATTAG,484
GAAACCTAATAAAATCAGCAGACGCAAGAAGGATAG,575
CTAGCGGACAAAATTACCGTCACGTTCAAAAGTTTC,1680
CTATCGAACATTTCTACCACTAATCACACCAGGTTC,534
GAACTAGAATTAAATCACGCGAAGATCATTAAATAG,892
CTAACACTGCGCCTTTTCGTGATGATGCATTTGTTC,544

# Sample 4 — technique: DHFR PCA, deep sequencing; matrix: yeast; together with: (+)-ABA 17 µM; relative to: wild-type fitted maximum; direction: higher = stronger binding
# Target: ABI1, truncated, D143A, DHFR fusion (Arabidopsis thaliana)
# Notes: methotrexate growth selection, single substitutions
# Starting sequence: PYL1, truncated, DHFR fusion (Arabidopsis thaliana); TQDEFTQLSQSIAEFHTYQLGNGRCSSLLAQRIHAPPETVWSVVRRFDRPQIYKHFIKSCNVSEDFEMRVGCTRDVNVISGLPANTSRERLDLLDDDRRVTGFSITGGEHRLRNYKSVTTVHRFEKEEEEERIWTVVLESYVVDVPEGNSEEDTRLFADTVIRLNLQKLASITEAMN; partner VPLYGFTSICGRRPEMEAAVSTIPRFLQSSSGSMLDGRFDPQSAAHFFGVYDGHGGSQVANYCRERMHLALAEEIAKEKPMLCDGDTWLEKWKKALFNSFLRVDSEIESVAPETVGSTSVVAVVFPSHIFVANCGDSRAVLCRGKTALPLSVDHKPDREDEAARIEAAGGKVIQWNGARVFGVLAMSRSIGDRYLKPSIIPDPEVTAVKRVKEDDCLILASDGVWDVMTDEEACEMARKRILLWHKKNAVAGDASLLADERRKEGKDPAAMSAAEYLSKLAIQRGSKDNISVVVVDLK
Substitution,relative binding score
S80K,19.5%
I57D,-19.5%
L28E,6.94%
S117P,27.1%
G148R,34.3%
L169W,-1.39%
V100K,3.99%
T1H,81.5%
A170G,65%
E147R,73.9%
Q19T,85.9%
M68G,61.6%
D65F,58.2%
S9M,67.7%
H122D,45.6%

# Excerpt of the above (sample 3):
Sequence,fluorescence intensity [a.u.]
GAACGGAAAAGCTCACGTGTGAAGAAGAAAACATAG,3620
GAATGTGGACCCCCTCACCTTATACCACTACGTTAG,498
CTACTGTGGCCCCCTCACGCTGTTTAATGACGATTC,548
GAAAGCCATCAATGTCACCCATCTTTTGTGGATTAG,484
CTATCGCACTCTAACCACCTGAAAGGTACTATCTTC,505
